Measurements from different studies.
Compare with care: the assays were run in different laboratories. ± marks the error that the study gave. ≈ marks a conversion by molar mass, not a printed value.

CNC(C)Cc1ccc2c(c1)OCO2 (stereo not shown)  ED50 (seizure incidence; C57Bl/6J mice, both sexes; intraperitoneal, 2 h, dose as salt): 138 mg/kg
Nc1ccc(C(=O)O)c(O)c1  fraction unbound (THP-1 caseum surrogate; 5 µM, 4 h, 37 °C): 0.511 ± 0.112
C[C@H]1CNCCc2ccc(Cl)cc21  plasma concentration (Sprague-Dawley rat, male, plasma; subcutaneous, 0.5 mg/kg, 30 min): 14 ± 0.5 ng/mL
CN(C)C[C@H]1CCCC[C@]1(O)c1cccc(O)c1  drug liking versus placebo (visual analog scale; healthy non-drug abusers; oral, 20 mg, unit not given; relative to: placebo): -2
N[C@@]1(c2ccccc2Cl)CCC[C@@H](O)C1=O  dose-normalized Cmax (male CD-1 mice, plasma; intraperitoneal, 5 mg/kg): 310 ± 26.1 ng/mL per mg/kg
Cc1ncc2n1-c1ccc(Cl)cc1C(c1ccccc1F)=NC2  AUC(0-t) (healthy human volunteers, plasma; oral, 7.5 mg single dose, geometric mean, alone): 93.9 ng·h/mL
C[C@H]1N=C(c2ccccc2F)c2cc(Br)ccc2NC1=O  solubility (shake flask; PBS; 24 h, pH 7.4): 35.7 µM (≈ 12.4 µg/mL)
CNC(C)C(=O)c1ccc(C)cc1 (stereo not shown)  LD50 (C57BL/6 mouse; intraperitoneal, single dose): 143 mg/kg
CN1CC[C@@]23CCCC[C@@H]2[C@@H]1Cc1ccc(O)cc13  MRT(0-inf) (Wistar rat, both sexes, plasma; oral, 5 mg/kg DEM, DEM 2 h after pretreatment, added: TCE 400 mg/kg single pretreatment): 5.05 ± 2.34 h
COc1cccc(C2(O)CCCCC2CN(C)C)c1 (stereo not shown)  Tmax (human, plasma; oral, 100 mg, single dose, fasted): 1.8 h
N[C@]1(c2ccccc2Cl)C[C@H](O)CCC1=O  dose-normalized Cmax (male CD-1 mice, plasma; intraperitoneal, 5 mg/kg): 112 ± 11.3 ng/mL per mg/kg
CC(C)C[C@H](CN)CC(=O)O  AUC (human, plasma; oral, 150 mg, geometric mean): 15300 ng·h/mL
N[C@@]1(c2ccccc2Cl)CC[C@H](O)CC1=O  dose-normalized Cmax (female CD-1 mice, plasma; intraperitoneal, 5 mg/kg): 209 ± 13.4 ng/mL per mg/kg
CN[C@@H](C)Cc1ccccc1  ED50 (seizure incidence; C57Bl/6J mice, both sexes; intraperitoneal, 2 h, dose as salt): 97.1 mg/kg
C=C1C[C@@H]2[C@H](CC[C@]3(C)C(=O)CC[C@@H]23)[C@@]2(C)C=CC(=O)C=C12  median plasma concentration (LC-MS/MS; postmenopausal breast cancer women, plasma; oral, 25 mg/day, 2 h, AST and ALT up to 40): 7.5 ng/mL
COc1ccsc1CNCC[C@@]1(c2ccccn2)CCOC2(CCCC2)C1  AUC(0-t) (healthy human, normal renal function, plasma; intravenous, 1 mg single dose, arithmetic mean): 18 ng·h/mL
CC[C@@H](CO)NCCN[C@@H](CC)CO  fraction unbound (THP-1 caseum surrogate; 5 µM, 4 h, 37 °C): 0.388 ± 0.056
CCC[C@@H](C(=O)c1ccccc1)N1CCCC1  ED50 (heart rate, telemetry; male Sprague-Dawley rat; subcutaneous, 3 h session mean): 0.25 mg/kg
CCCC(C(=O)c1ccc(O)c(OC)c1)N1CCCC1 (stereo not shown)  stability (human plasma; 25 µg/L, 24 h, Medium QC, room temperature; relative to: freshly fortified plasma): 3.7 % difference
Cc1ncc(OC[C@@]2(c3cccc(F)c3)C[C@H]2C(=O)Nc2ccc(F)cn2)c(C)n1  AUC(0-t) (human, plasma; 10 mg single dose, alone, mean): 366 ng·h/mL
COc1ccc2nc([S@@+]([O-])Cc3ncc(C)c(OC)c3C)[nH]c2c1  adverse events (human healthy; 40 mg, influenza-like illness): 0%
CC(=O)NNC(=O)c1ccncc1  fraction unbound (THP-1 caseum surrogate; 5 µM, 4 h, 37 °C): > 99.9%
COc1ccc2c(c1)[C@]13CCCC[C@@H]1[C@H](C2)N(C)CC3  CL/F (Wistar rat, both sexes, plasma; oral, 5 mg/kg, 2 h after pretreatment, added: single TCE 100 mg/kg): 333 ± 167 mL/min/kg
CCCC(C(=O)c1ccc(O)c(O)c1)N1CCCC1 (stereo not shown)  stability (human plasma; 750 µg/L, 24 h, High QC, room temperature; relative to: freshly fortified plasma): 4.2 % difference
CS(=O)(=O)N1CCC(Oc2ccc(CC(=O)N3CCC(N4C(=O)CCc5ccccc54)CC3)c(OC/C=C\[125I])c2)CC1  decomposition (radio-HPLC, item: free iodide-125; 10% ethanol in saline; 45 days, storage stability): 15 to 20%
Cn1nnc(-c2ccc(-c3ccc(N4C[C@H](CO)OC4=O)cc3F)cn2)n1  fraction unbound (THP-1 caseum surrogate; 5 µM, 4 h, 37 °C): 0.137 ± 0.027
CN1C(=O)CC(=O)N(c2ccccc2)c2cc(Cl)ccc21  Cmin (CF-1 mouse, brain; intraperitoneal, 17 mg/kg): 0.012 ng/mg
O=c1[nH]c2ccccc2n1CCCN1CCC(n2c(=O)[nH]c3cc(Cl)ccc32)CC1  brain uptake clearance Kin (in situ brain perfusion; CF-1 mouse, wild type, male; 1 µM, pH 7.4): 3.1 mL/100 g/min
CCCCCCCCCCC(=O)O[C@H]1CC[C@H]2[C@@H]3CCC4=CC(=O)CC[C@]4(C)[C@H]3CC[C@]12C  testosterone concentration (human blood; 600 ng/mL, 30 min, 4 °C, NaF 5 mg/mL, K2 oxalate 4 mg/mL): 438 ng/dL
Oc1ccc2c3c1O[C@H]1c4[nH]c5ccccc5c4C[C@@]4(O)[C@@H](C2)N(CC2CC2)CC[C@]314  log intrinsic permeability (rat; no efflux inhibition): -3.72
Cc1ncc2n1-c1ccc(Cl)cc1C(c1ccccc1F)=NC2  terminal half-life (human CYP3A5*3/*3 non-expressers, serum; geometric mean, added: ketoconazole 400 mg): 8.92 h
CC(=O)Nc1ccc2oc(-c3ccnc(C(=O)N4CCN([C@H](c5ccccc5)c5nnn(C)n5)CC4)c3)nc2c1  Cmax (mouse, plasma; oral, 10 mg/kg): 2100 nM
O=C([C@@H](O)CO)N1CC=C(c2c(F)cc(N3C[C@H](COc4ccon4)OC3=O)cc2F)CC1  fraction unbound (THP-1 caseum surrogate; 5 µM, 4 h, 37 °C): 0.176 ± 0.045
CNC(C)Cc1ccc2c(c1)OCO2 (racemic)  diastolic pressure change (human; oral, 1.5 mg/kg, unit not given; relative to: pre-dose baseline): 11.5

A few entries again:
COc1ccsc1CNCC[C@@]1(c2ccccn2)CCOC2(CCCC2)C1  AUC(0-t) (healthy human, normal renal function, plasma; intravenous, 1 mg single dose, arithmetic mean): 18 ng·h/mL
CC[C@@H](CO)NCCN[C@@H](CC)CO  fraction unbound (THP-1 caseum surrogate; 5 µM, 4 h, 37 °C): 0.388 ± 0.056
CCC[C@@H](C(=O)c1ccccc1)N1CCCC1  ED50 (heart rate, telemetry; male Sprague-Dawley rat; subcutaneous, 3 h session mean): 0.25 mg/kg
CCCC(C(=O)c1ccc(O)c(OC)c1)N1CCCC1 (stereo not shown)  stability (human plasma; 25 µg/L, 24 h, Medium QC, room temperature; relative to: freshly fortified plasma): 3.7 % difference
Cc1ncc(OC[C@@]2(c3cccc(F)c3)C[C@H]2C(=O)Nc2ccc(F)cn2)c(C)n1  AUC(0-t) (human, plasma; 10 mg single dose, alone, mean): 366 ng·h/mL
